Measured values from different studies.
“And” joins repeats or separate records; there may be more than shown. ± gives the spread as reported.

For O=C1NC2(CC2)COc2ncc(F)cc2[C@H]2COCCN2c2ccn3ncc1c3n2, “organ-to-brain weight ratio” read 653 ± 70.6% (Sprague-Dawley rat, male, liver; oral, 2.5 mg/kg/day, 4 weeks dosing, end of recovery).
The tissue uptake of CN1Cc2cc(Cl)ccc2-n2c(nnc2C2CCN(c3cccc([18F])n3)CC2)C1 is reported as 6.54 ± 2.65 %ID/g (C57BL/6 mouse male, adrenal gland; intravenous, 3.7 MBq, 15 min).
CC(C)C[C@@H](NC(=O)[C@@H](CCCNC(=N)N)NC(=O)[C@@H](Cc1c[nH]cn1)NC(=O)[C@@H](Cc1c[nH]c2ccccc12)NC(=O)[C@@H](Cc1c[nH]cn1)NC(=O)[C@@H](Cc1ccccc1)NC(=O)[C@H](NC(=O)[C@@H](Cc1ccc(O)cc1)NC(=O)CNC(=O)CNC(=O)CCOCCOCCOCCNC(=O)CN1CCN(CC(=O)O)CCN(CC(=O)O)CC1)[C@H](C)O)C(=O)N[C@H](CC(N)=O)C(=O)N1CCC[C@@H]1C(=O)O [gallium-68 labelled] gave a tissue uptake of 0.94 ± 0.13 %ID/g (gamma counting; C57BL/6 mice, male, lung; intravenous, 1.85 MBq, 60 min).
With CC[C@H](C)[C@H](NC(=O)[C@H](CCCNC(=N)N)NC(=O)[C@H](CCCCN)NC(=O)[C@H](Cc1ccc(O)cc1)NC(=O)[C@H](CC(=O)O)NC(=O)[C@H](C)NC(=O)CNC(=O)CCOCCOCCOCCNC(=O)CN1CCN(CC(=O)O)CCN(CC(=O)O)CCN(CC(=O)O)CC1)C(=O)N[C@H](C(=O)N[C@@H](CC(C)C)C(=O)N[C@@H](CCCCN)C(=O)N[C@H](C(=O)N[C@@H](CC(N)=O)C(N)=O)C(C)C)[C@@H](C)O [copper-64 labelled] the tissue uptake was 1.73 ± 0.687 %ID/g (C57BL/6J mouse male, B16-F10 tumour, small intestine; intravenous, 1.85 MBq, 40 min, 67Ga complex).
CC[C@H](C)[C@H](NC(=O)[C@H](CCCCN)NC(=O)CNC(=O)[C@H](CC(C)C)NC(=O)[C@H](Cc1ccccc1)NC(=O)[C@H](CCCCN)NC(=O)[C@H](CO)NC(=O)[C@H](Cc1ccccc1)NC(=O)[C@H](Cc1c[nH]c2ccccc12)NC(=O)[C@H](CCC(N)=O)NC(=O)[C@@H](NC(=O)[C@H](Cc1ccccc1)NC(=O)CCCCCNC(=O)CN1CCN(CC(=O)O)CCN(CC(=O)O)CCN(CC(=O)O)CC1)C(C)C)C(=O)N[C@@H](CCC(=O)O)C(=O)N1CCC[C@H]1C(=O)N[C@@H](CC(=O)O)C(=O)N[C@H](C(=O)N[C@@H](CO)C(=O)N[C@@H](CCC(N)=O)C(=O)N[C@H](C(=O)N[C@@H](CCC(N)=O)C(=O)N[C@@H](CC(=O)O)C(=O)N1CCC[C@H]1C(=O)N[C@@H](CC(N)=O)C(=O)N[C@@H](CC(=O)O)C(=O)N[C@@H](CCC(N)=O)C(=O)N[C@@H](Cc1ccc(O)cc1)C(=O)N[C@@H](CCC(=O)O)C(=O)N1CCC[C@H]1C(=O)N[C@@H](Cc1ccccc1)C(=O)O)C(C)C)C(C)C [copper-64 labelled] gave a tissue uptake of 4.14 ± 0.09 %ID/g (C57BL/6 mice, lung; added: LPS 3 mg/kg intratracheal).
CC[C@H](C)[C@H](NC(=O)[C@H](CCCNC(=N)N)NC(=O)[C@H](CCCCN)NC(=O)[C@H](Cc1ccc(O)cc1)NC(=O)[C@H](CC(=O)O)NC(=O)[C@H](C)NC(=O)CNC(=O)CCOCCOCCOCCNC(=O)CN1CCN(CC(=O)O)CCN(CC(=O)O)CCN(CC(=O)O)CC1)C(=O)N[C@H](C(=O)N[C@H](C(=O)N[C@@H](CCCCN)C(=O)N[C@H](C(=O)N[C@@H](CC(N)=O)C(N)=O)C(C)C)C(C)C)[C@@H](C)O [copper-64 labelled] has a tissue uptake of 0.763 ± 0.086 %ID/g (ex vivo gamma counting; C57BL/6J male mice, B16-F10 tumour, bone; intravenous, 1.85 MBq, 40 min).
With CCCC[C@H]1C(=O)N(C)[C@@H](CCCC)C(=O)N[C@@H](CCCNC(=O)CN2CCN(CC(=O)O)CCN(CC(=O)O)CCN(CC(=O)O)CC2)C(=O)N[C@H](C(=O)NCC(N)=O)CSCC(=O)N[C@@H](Cc2ccc(O)cc2)C(=O)N(C)[C@@H](C)C(=O)N[C@@H](CC(N)=O)C(=O)N2CCC[C@H]2C(=O)N[C@@H](Cc2c[nH]cn2)C(=O)N[C@@H](CC(C)C)C(=O)N(C)CC(=O)N[C@@H](Cc2c[nH]c3ccccc23)C(=O)N[C@@H](CO)C(=O)N[C@@H](Cc2c[nH]c3ccccc23)C(=O)N1C [gallium-68 labelled] the tissue uptake was 1.88 ± 0.28 %ID/g (NOD/SCID mice, CHO-hPD-L1 xenograft, pancreas; 60 min, atezolizumab 10 mg/kg pretreatment).
CCn1ccc(-c2cc([C@@H](C)NC(=O)c3cc(N4CCN(C)[C@H](C)C4)ccc3C)c3ccccc3n2)n1 gave a viability of 56.6% and 50.4% and 35.6% (Vero E6; 31.25 µM).
The tissue uptake of CSCC[C@H](NC(=O)CNC(=O)[C@H](CCCCN)NC(=O)[C@H](CC(C)C)NC(=O)[C@@H]1CCCN1C(=O)[C@H](CO)NC(=O)[C@H](Cc1c[nH]cn1)NC(=O)[C@H](Cc1c[nH]c2ccccc12)NC(=O)[C@H](CCCNC(=N)N)NC(=O)[C@H](CC(C)C)NC(=O)[C@H](CCCNC(=N)N)NC(=O)[C@H](Cc1c[nH]c2ccccc12)NC(=O)[C@H](CS)NC(=O)CCCCCNC(=O)CN1CCN(CC(=O)O)CCN(CC(=O)O)CCN(CC(=O)O)CC1)C(=O)O [copper-64 labelled] is reported as 1.21 %ID/g (ex vivo biodistribution; male C57BL/6J mice, bone; intravenous, 1.85 MBq, 30 h, B16-F10 tumour-bearing).
For Cc1ccc(OCC2CN(C)C2)cc1C(=O)N[C@H](C)c1cc(-c2cnn(C)c2)nc2ccccc12, the viability was 98% and 98.4% and 93.9% (Vero E6; 31.25 µM).
For C[C@H](O)[C@@H](NC(=O)[C@H]1CCCN1C(=O)[C@@H](CCCCN)NC(=O)[C@@H](CO)NC(=O)[C@@H](Cc1ccc(O)cc1)NC(=O)[C@@H](CC(N)=O)NC(=O)CCOCCOCCOCCNC(=O)CN1CCN(CC(=O)O)CCN(CC(=O)O)CCN(CC(=O)O)CC1)C(=O)N[C@H](CC(=O)O)C(=O)N[C@H](CCCNC(=N)N)C(=O)N[C@H](CCC(N)=O)C(=O)N[C@H](Cc1ccc(O)cc1)C(=O)N[C@H](Cc1c[nH]cn1)C(=O)N[C@H](Cc1ccccc1)C(N)=O [copper-64 labelled], the tissue uptake was 0.22 ± 0.05 %ID/g (C57BL/6J mice, pancreas; intravenous, 1.85 MBq, 1 h, radiolabelled).
